Experimental data of several laboratories.
Lines come from different studies, so protocols differ.
Organism: Enterococcus faecium

| Structure (SMILES) | test | test system | setting | how to read | MIC |
| --- | --- | --- | --- | --- | --- |
| CN[C@H](CC(C)C)C(=O)N[C@H]1C(=O)N[C@@H](CC(N)=O)C(=O)N[C@H]2C(=O)N[C@H]3C(=O)N[C@H](C(=O)N[C@H](C(=O)O)c4cc(O)cc(O)c4-c4cc3ccc4O)[C@H](O)c3ccc(c(Cl)c3)Oc3cc2cc(c3O[C@@H]2O[C@H](CO)[C@@H](O)[C@H](O)[C@H]2O[C@H]2C[C@](C)(N)[C@H](O)[C@H](C)O2)Oc2ccc(cc2Cl)[C@H]1O |  | VanB vancomycin-resistant |  |  | > 16 µg/mL |
| CC[C@H](C)[C@H](N)C(=O)N[C@@H](CCCNC(=N)N)C(=O)N[C@H](C(=O)N[C@@H](Cc1c[nH]c2ccccc12)C(=O)N[C@@H](CCCCN)C(=O)N[C@@H](CCCCN)C(=O)N[C@@H](Cc1ccccc1)C(=O)N[C@H](C(=O)N[C@@H](CCCNC(=N)N)C(=O)N[C@@H](CCCCN)C(=O)N[C@@H](CCSC)C(=O)N[C@@H](CCCCN)C(=O)N[C@@H](C)C(=O)N[C@H](C(=O)N[C@@H](Cc1ccc(O)cc1)C(=O)N[C@@H](Cc1c[nH]cn1)C(N)=O)[C@@H](C)CC)C(C)C)C(C)C | broth dilution | KCTC 13225 |  |  | 25 µM |
| CN[C@H](CC(C)C)C(=O)N[C@H]1C(=O)N[C@@H](CC(N)=O)C(=O)N[C@H]2C(=O)NC3C(=O)N[C@H](C(=O)N[C@H](C(=O)NCCC[N+](C)(C)C)c4cc(O)cc(O)c4-c4cc3ccc4O)[C@H](O)c3ccc(c(Cl)c3)Oc3cc2cc(c3OC2OC(CO)C(O)[C@H](O)[C@@H]2O[C@H]2CC(C)(NCc3ccc(-c4ccc(Cl)cc4)cc3)[C@H](O)[C@H](C)O2)Oc2ccc(cc2Cl)[C@H]1O (stereo partly drawn) |  | ATCC BAA-2317 VanA VRE | no additive |  | 0.3 µg/mL |
| CN[C@H](CC(C)C)C(=O)N[C@H]1C(=O)N[C@@H](CC(N)=O)C(=O)N[C@H]2C(=O)N[C@H]3C(=O)N[C@H](C(=O)N[C@H](C(=O)O)c4cc(O)cc(O)c4-c4cc3ccc4O)[C@H](O)c3ccc(c(Cl)c3)Oc3cc2cc(c3O[C@@H]2O[C@H](CO)[C@@H](O)[C@H](O)[C@H]2O[C@H]2C[C@](C)(N)[C@H](O)[C@H](C)O2)Oc2ccc(cc2Cl)[C@H]1O |  | ATCC 700221 vancomycin-resistant |  |  | > 50 µg/mL |
| CC[C@H](C)[C@H](NC(=O)[C@H](CCCCN)NC(=O)[C@@H](NC(=O)[C@H](Cc1ccc(O)cc1)NC(=O)[C@H](CCCCN)NC(=O)[C@H](CCCCN)NC(=O)CNC(=O)[C@H](CCCCN)NC(=O)[C@@H](NC(=O)[C@H](C)NC(=O)[C@H](CC(C)C)NC(=O)[C@H](Cc1c[nH]c2ccccc12)NC(=O)CNC(=O)[C@@H](NC(=O)[C@H](Cc1ccccc1)NC(=O)[C@H](CCCCN)NC(=O)[C@H](CC(C)C)NC(=O)[C@H](Cc1ccccc1)NC(=O)[C@H](C)NC(=O)CNC(=O)[C@@H](N)CCSC)C(C)C)[C@@H](C)O)C(C)C)C(=O)N[C@@H](C)C(=O)N[C@@H](Cc1c[nH]c2ccccc12)C(=O)N[C@@H](CC(=O)O)C(=O)N[C@@H](Cc1c[nH]cn1)C(=O)N[C@@H](CCCCN)C(=O)NCC(=O)N[C@H](C(=O)N[C@H](C(=O)N[C@@H](CCSC)C(=O)N[C@@H](CCCCN)C(=O)N[C@@H](Cc1c[nH]c2ccccc12)C(=O)N[C@@H](CC(C)C)C(=O)N[C@@H](CC(N)=O)C(=O)N[C@@H](C)C(=O)NCC(=O)N[C@@H](CCC(N)=O)C(=O)N[C@H](C(=O)N[C@@H](Cc1ccccc1)C(=O)N[C@H](C(=O)N[C@@H](Cc1c[nH]c2ccccc12)C(=O)N[C@H](C(=O)N[C@@H](Cc1ccc(O)cc1)C(=O)N[C@@H](CCC(=O)O)C(=O)N[C@@H](CCC(N)=O)C(=O)N[C@H](C(=O)N[C@@H](CCCCN)C(=O)N[C@@H](CCCCN)C(=O)N[C@@H](CC(C)C)C(=O)N[C@@H](Cc1c[nH]c2ccccc12)C(=O)N[C@H](C(=O)O)[C@@H](C)O)[C@@H](C)CC)C(C)C)[C@@H](C)O)[C@@H](C)O)[C@@H](C)CC)[C@@H](C)O | broth microdilution |  | 37 °C, MRS medium |  | 31.3 µg/mL |
| CC[C@H](C)[C@H](N)C(=O)N[C@@H](CCCNC(=N)N)C(=O)N[C@H](C(=O)N[C@@H](Cc1c[nH]c2ccccc12)C(=O)N[C@@H](Cc1ccccc1)C(=O)N[C@H](C(=O)N[C@@H](CCCCN)C(=O)N[C@H](C(=O)N[C@@H](CCCNC(=N)N)C(=O)N[C@@H](CCCCN)C(=O)N[C@@H](Cc1c[nH]c2ccccc12)C(=O)N[C@@H](CCCCN)C(=O)N[C@@H](C)C(=O)N[C@H](C(=O)N[C@@H](Cc1ccc(O)cc1)C(=O)N[C@@H](Cc1c[nH]cn1)C(=O)N[C@H](C(N)=O)[C@@H](C)O)[C@@H](C)CC)C(C)C)[C@@H](C)CC)C(C)C | broth dilution | KCTC 13225 |  |  | 50 µM |
| CCCCCCCCCC(=O)N[C@@H](Cc1c[nH]c2ccccc12)C(=O)N[C@H](CC(N)=O)C(=O)N[C@@H](CC(=O)O)C(=O)N[C@@H]1C(=O)NCC(=O)N[C@@H](CCCN)C(=O)N[C@@H](CC(=O)O)C(=O)N[C@H](C)C(=O)N[C@@H](CC(=O)O)C(=O)NCC(=O)N[C@H](CO)C(=O)N[C@@H]([C@H](C)CC(=O)O)C(=O)N[C@@H](CC(=O)c2ccccc2N)C(=O)O[C@@H]1C |  | resistant isolate | 16 h, together with: Ca2+ 1.0 mM |  | 8 µg/mL |
| CCCCCCC#Cc1cncc(-c2nnc(SCc3ccc(Cl)cc3)n2CCCN)c1 | broth microdilution | ATCC 51559 MDR VRE | 18 to 24 h, 37 °C |  | 8 µg/mL |
| CC[C@H](C)[C@H](NC(=O)[C@H](CC(C)C)NC(=O)[C@H](CCCNC(=N)N)NC(=O)[C@@H](N)CCCNC(=N)N)C(=O)N[C@@H](CCCNC(=N)N)C(=O)N[C@@H](CCCCN)C(=O)N[C@@H](CC(C)C)C(=O)N[C@@H](CCCCN)C(=O)NCC(=O)N1CCC[C@H]1C(=O)N[C@@H](CCCCN)C(=O)N[C@H](C(=O)N[C@@H](Cc1ccc(O)cc1)C(=O)N[C@@H](CC(C)C)C(=O)N[C@@H](Cc1ccc(O)cc1)C(=O)N[C@@H](Cc1ccccc1)C(=O)N[C@@H](CCCCN)C(=O)N[C@@H](CC(C)C)C(=O)N[C@@H](CCC(N)=O)C(=O)N[C@@H](CC(C)C)C(=O)N[C@@H](CC(C)C)C(=O)N[C@@H](CCCCN)C(=O)N[C@@H](CCCCN)C(N)=O)[C@@H](C)CC |  | ATCC 51559, vancomycin-resistant, Mueller-Hinton broth | 24 h |  | 8 µM |
| Cc1ccc2[nH]c3c(c2c1)CCCC3NCCc1ccc(Br)cc1 (stereo not drawn) | broth microdilution | BM4147 vancomycin-resistant |  |  | 4 µg/mL |
| CC[C@H](C)[C@H](NC(=O)[C@H](CCCCN)NC(=O)[C@H](CCCCN)NC(=O)CNC(=O)[C@H](CCCCN)NC(=O)[C@H](CC(C)C)NC(=O)[C@H](CCCCN)NC(=O)[C@H](CCCNC(=N)N)NC(=O)[C@@H](NC(=O)[C@H](CC(C)C)NC(=O)[C@H](CCCNC(=N)N)NC(=O)[C@@H](N)CCCNC(=N)N)[C@@H](C)CC)C(=O)N[C@@H](Cc1ccc(O)cc1)C(=O)N[C@@H](CC(C)C)C(=O)N[C@@H](Cc1ccc(O)cc1)C(=O)N[C@@H](Cc1ccccc1)C(=O)N[C@@H](CCCCN)C(=O)N[C@@H](CC(C)C)C(=O)N[C@@H](CCC(N)=O)C(=O)N[C@@H](CC(C)C)C(=O)N[C@@H](CC(C)C)C(=O)N[C@@H](CCCCN)C(=O)N[C@@H](CCCCN)C(N)=O |  | ATCC 51559, vancomycin-resistant, Mueller-Hinton broth | 24 h |  | 4 µM |
| CCCCCCC#Cc1cncc(-c2nnc(Sc3ccc([N+](=O)[O-])cc3[N+](=O)[O-])n2C)c1 |  | vancomycin-resistant |  | no activity at value | ≥ 20 µg/mL |
| CCCCCCC#Cc1cncc(-c2nnc(SCc3cc([N+](=O)[O-])cc([N+](=O)[O-])c3)n2C2CCNCC2)c1 | broth microdilution | ATCC 51559 MDR VRE | 18 to 24 h, 37 °C |  | 16 µg/mL |
| CN[C@H](CC(C)C)C(=O)N[C@H]1C(=O)N[C@@H](CC(N)=O)C(=O)N[C@H]2C(=O)N[C@H]3C(=O)N[C@H](C(=O)N[C@H](C(=O)O)c4cc(O)cc(O)c4-c4cc3ccc4O)[C@H](O)c3ccc(c(Cl)c3)Oc3cc2cc(c3O[C@@H]2O[C@H](CO)[C@@H](O)[C@H](O)[C@H]2O[C@H]2C[C@](C)(N)[C@H](O)[C@H](C)O2)Oc2ccc(cc2Cl)[C@H]1O |  | VRE vanB |  |  | 86 µM |
| CC[C@H](C)[C@H](NC(=O)[C@H](CC(C)C)NC(=O)[C@H](CCCNC(=N)N)NC(=O)[C@@H](N)CCCNC(=N)N)C(=O)N[C@@H](CCCNC(=N)N)C(=O)N[C@H](C(=O)N[C@@H](CC(=O)O)C(=O)N[C@H](C(=O)NCC(=O)N1CCC[C@H]1C(=O)N[C@H](C(=O)N[C@H](C(=O)N[C@@H](Cc1ccc(O)cc1)C(=O)N[C@@H](CC(=O)O)C(=O)N[C@@H](Cc1ccc(O)cc1)C(=O)N[C@@H](Cc1ccccc1)C(=O)N[C@@H](CCCCN)C(=O)N[C@@H](CC(=O)O)C(=O)N[C@@H](CCC(N)=O)C(=O)N[C@@H](CC(C)C)C(=O)N[C@@H](CC(C)C)C(=O)N[C@@H](CCCCN)C(=O)N[C@@H](CCCCN)C(N)=O)[C@@H](C)CC)[C@@H](C)CC)[C@@H](C)O)[C@@H](C)O |  | ATCC 51559, vancomycin-resistant, Mueller-Hinton broth | 24 h |  | > 128 µM |

For quick reference, copied from above:
| Structure (SMILES) | test | test system | setting | how to read | MIC |
| --- | --- | --- | --- | --- | --- |
| CC[C@H](C)[C@H](NC(=O)[C@H](CC(C)C)NC(=O)[C@H](CCCNC(=N)N)NC(=O)[C@@H](N)CCCNC(=N)N)C(=O)N[C@@H](CCCNC(=N)N)C(=O)N[C@H](C(=O)N[C@@H](CC(=O)O)C(=O)N[C@H](C(=O)NCC(=O)N1CCC[C@H]1C(=O)N[C@H](C(=O)N[C@H](C(=O)N[C@@H](Cc1ccc(O)cc1)C(=O)N[C@@H](CC(=O)O)C(=O)N[C@@H](Cc1ccc(O)cc1)C(=O)N[C@@H](Cc1ccccc1)C(=O)N[C@@H](CCCCN)C(=O)N[C@@H](CC(=O)O)C(=O)N[C@@H](CCC(N)=O)C(=O)N[C@@H](CC(C)C)C(=O)N[C@@H](CC(C)C)C(=O)N[C@@H](CCCCN)C(=O)N[C@@H](CCCCN)C(N)=O)[C@@H](C)CC)[C@@H](C)CC)[C@@H](C)O)[C@@H](C)O |  | ATCC 51559, vancomycin-resistant, Mueller-Hinton broth | 24 h |  | > 128 µM |
| CN[C@H](CC(C)C)C(=O)N[C@H]1C(=O)N[C@@H](CC(N)=O)C(=O)N[C@H]2C(=O)N[C@H]3C(=O)N[C@H](C(=O)N[C@H](C(=O)O)c4cc(O)cc(O)c4-c4cc3ccc4O)[C@H](O)c3ccc(c(Cl)c3)Oc3cc2cc(c3O[C@@H]2O[C@H](CO)[C@@H](O)[C@H](O)[C@H]2O[C@H]2C[C@](C)(N)[C@H](O)[C@H](C)O2)Oc2ccc(cc2Cl)[C@H]1O |  | VanB vancomycin-resistant |  |  | > 16 µg/mL |
